# Experimental data pooled from the literature.
# Every numbered part comes from another study and shows a few of its results, in no order.

# Block 1 — method: protein binding microarray; molecule type: double-stranded DNA, one strand shown; matrix: in vitro; concentration: not given; reference: not given; direction: higher = stronger binding
# Target: Histone acetyltransferase KAT6A, both winged helices, GST fusion (KAT6A, Homo sapiens, UniProt Q92794, residues 1-181)
# Notes: 8-mer, flanks averaged, mean of 2 arrays, mostly near background
# Residues (chain): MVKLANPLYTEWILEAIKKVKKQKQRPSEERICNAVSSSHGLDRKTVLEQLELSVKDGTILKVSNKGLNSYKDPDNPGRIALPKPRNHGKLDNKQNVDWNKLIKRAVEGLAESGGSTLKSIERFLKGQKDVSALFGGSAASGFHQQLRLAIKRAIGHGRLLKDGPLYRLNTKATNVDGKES
Sequence,E-score
CCAAGAGA,-0.163
CGTCCTCA,0.111
CTACCCAA,-0.166
GACCAAAA,0.0612
AACACACT,-0.0473

# Block 2 — method: protein-binding microarray; molecule type: double-stranded DNA, one strand shown; matrix: in vitro; concentration: 250 nM; notes: 60-bp whole probe; with: salmon DNA 0.4 mg/ml; reference: random background probes; direction: higher = stronger binding
# Target: Interferon regulatory factor 7, full length, phosphomimetic (IRF7, Homo sapiens, UniProt Q92985, residues 1-503, S101K/S471D/S472D/S475D/S476D/S477D/S483D/S484D/S487D)
# UniProt Q92985, sequence (whole entry, unmodified, looked up): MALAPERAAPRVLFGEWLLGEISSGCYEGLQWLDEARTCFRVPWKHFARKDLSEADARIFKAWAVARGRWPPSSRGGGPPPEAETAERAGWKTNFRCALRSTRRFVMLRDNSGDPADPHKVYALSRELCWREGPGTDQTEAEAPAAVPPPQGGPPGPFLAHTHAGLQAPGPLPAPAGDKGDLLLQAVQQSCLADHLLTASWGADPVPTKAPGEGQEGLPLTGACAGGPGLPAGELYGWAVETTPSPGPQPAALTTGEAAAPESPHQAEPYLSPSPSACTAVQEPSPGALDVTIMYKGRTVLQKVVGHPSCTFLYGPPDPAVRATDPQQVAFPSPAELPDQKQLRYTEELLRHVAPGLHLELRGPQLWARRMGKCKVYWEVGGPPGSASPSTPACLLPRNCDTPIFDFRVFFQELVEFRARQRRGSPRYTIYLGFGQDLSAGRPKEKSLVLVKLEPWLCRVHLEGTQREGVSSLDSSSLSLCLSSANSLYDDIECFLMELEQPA
Sequence,log fluorescence [z-score]
GCCTAGCACATAGGTTCCCTTTTCCTTTAGTGCTAGGTCTTGATTCGCTTGACGCTGCTG,4.02
GCCTAGCACGAGGGTTTCGGGACTGGGGACGTGCTAGTCTTGATTCGCTTGACGCTGCTG,2.01
GCCTAGCACAGATGTATGAGCCTCTGTTTGTGCTAGGTCTTGATTCGCTTGACGCTGCTG,-0.272
GCCTAGCACTCAATTCTAGCCTATAGAACTGTGCTAGTCTTGATTCGCTTGACGCTGCTG,0.18

# Block 3 — method: RNA Bind-n-Seq; molecule type: RNA; matrix: in vitro; concentration: 200 nM; notes: whole 134-nt RNA, ends assumed; with: 150 mM LiCl; reference: input library; direction: higher = stronger binding; library: 7-deaza-guanosine replaces G
# Target: Fragile X messenger ribonucleoprotein 1, C-terminal low-complexity region (Fmr1, Mus musculus, UniProt P35922)
# All sequences stand within: GGGAGUUCUACAGUCCGACGAUC … UGGAAUUCUCGGGUGUCAAGG
Sequence,log2 enrichment
CAAGUCCUGUGCUACACAUCGUAUGUACCGAAUCGGAAAAAAAGGAAAAAGGUGGAAAGUAUUAUGUUACGCCGUUCGGAUCUGCACUUC,-1.18
UCCUCAAGUCCUGUGCUACACAUCGUAUGUACCGAAUCGGGGCGGGCGGCGGAAAGUAUUAUGUUACGCCGUUCGGAUCUGCACUUCCAG,-0.332
UGGGGUAGACCAGUUCCAUGGCACUGAAUAUGUGUGCUGCCCUCAGACAAAGAUUAUUGGAUCUGUGUCAAAAGAAGAGGAAGAGGAAGA,-0.98
GUCCUGUGCUACACAUCGUAUGUACCGAAUCGGGAAAAAGGGGAAAAAGGGAAAAAGGAAAGUAUUAUGUUACGCCGUUCGGAUCUGCAC,0.251
CCUGUGCUACACAUCGUAUGUACCGAAUCGGGAAAAAAAGGGAAAAAAAGGGAAAAAGGGAAAGUAUUAUGUUACGCCGUUCGGAUCUGC,-0.928

# Mixed results
Substance,target,test,test system,conditions,scale,endpoint,result
"PhoQ, residues 284 288 289 292 302 303 AEGLLW","PhoP, residues 12 14 15 18 19 YHFSH (Escherichia coli, UniProt P23836)","Sort-seq, item: YFP reporter",E. coli,"PhoQ-PhoP variant library, with: 10 µM Mg2+","reference: high Mg2+ state, higher = stronger signaling",fold induction,3.9

# For quick reference, copied from above (block 1):
Sequence,E-score
GACCAAAA,0.0612
